Experimental data gathered from unrelated publications.
Parts stem from different laboratories: compare values within a part only. Several values in a cell are separate wells, animals, samples, runs or records.

Block 1
Target: Dihydroxy-acid dehydratase, chloroplastic (DHAD, Arabidopsis thaliana, UniProt Q9LIR4)
Method: microscale thermophoresis
Quantity: Kd
Target sequence (Q9LIR4 35-608): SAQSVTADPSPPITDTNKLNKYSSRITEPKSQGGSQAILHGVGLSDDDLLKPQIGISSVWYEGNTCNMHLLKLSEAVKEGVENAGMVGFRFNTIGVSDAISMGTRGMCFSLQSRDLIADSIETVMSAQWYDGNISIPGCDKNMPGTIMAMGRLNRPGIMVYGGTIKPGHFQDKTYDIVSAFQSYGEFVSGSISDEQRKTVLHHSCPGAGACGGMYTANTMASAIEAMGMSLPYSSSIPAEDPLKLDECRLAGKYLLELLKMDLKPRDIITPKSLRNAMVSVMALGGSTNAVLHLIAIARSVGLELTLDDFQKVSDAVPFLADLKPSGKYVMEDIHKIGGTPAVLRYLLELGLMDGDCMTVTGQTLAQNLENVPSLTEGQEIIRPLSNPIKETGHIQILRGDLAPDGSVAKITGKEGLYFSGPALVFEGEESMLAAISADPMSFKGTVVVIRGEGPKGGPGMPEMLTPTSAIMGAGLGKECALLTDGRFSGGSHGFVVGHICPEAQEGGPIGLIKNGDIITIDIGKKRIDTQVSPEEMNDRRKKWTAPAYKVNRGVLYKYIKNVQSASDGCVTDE
COc1ccc2c(c1)OC(O)(C(=O)O)C(=O)N2Cc1ccccc1 (centres unmarked): 4.59 µM
CC(C)(C)c1ccc(Oc2ccc3c(c2)OC(O)(C(=O)O)C(=O)N3Cc2ccccc2)cc1 (centres unmarked): 64.9 µM
Cc1ccc2c(c1)OC(O)(C(=O)O)C(=O)N2Cc1ccccc1 (centres unmarked): 2.58 µM
CCN1C(=O)C(O)(C(=O)O)Oc2cc(F)ccc21 (centres unmarked): 132 µM
O=C(O)C1(O)Oc2cc(Cl)ccc2N(Cc2ccccc2)C1=O (centres unmarked): 31.7 µM
O=C(O)C1(O)Oc2ccccc2N(Cc2ccccc2)C1=O (centres unmarked): 336 µM

Block 2
Cell line: L444P/L444P Gaucher fibroblasts
Method: 4-MUG hydrolysis in lysate
Tested at: 10 µM
Time: 72 h
Baseline: vehicle
Quantity: enzyme activity
Ic1ccc(Nc2nc(NCCCN3CCOCC3)nc(N3CCOCC3)n2)cc1: 131%
Ic1ccc(Nc2nc(NCCN3CCOCC3)nc(NC3CCCCC3)n2)cc1: 93%
CCOc1ccc2nc(Sc3nc(N4CCOCC4)nc(N4CCOCC4)n3)sc2c1: 111%
Ic1ccc(Nc2nc(N3CCOCC3)nc(N3CCOCC3)n2)cc1: 151%
c1ccc(Nc2nc(NCCN3CCOCC3)nc(N3CCOCC3)n2)cc1: 113%
Ic1ccc(Nc2nc(NCCN3CCCCC3)nc(N3CCOCC3)n2)cc1: 96%
Ic1ccc(Nc2nc(NCCN3CCOCC3)nc(N3CC4CCC(C3)O4)n2)cc1: 120%
CCOc1ccc2nc(Sc3nc(NCCN4CCOCC4)nc(Nc4ccc(I)cc4)n3)sc2c1: 121%
CCOc1ccc2nc(Sc3nc(Nc4ccc(OC)cc4)nc(N4CCOCC4)n3)sc2c1: 225%
Cc1ccc(Nc2nc(NCCN3CCOCC3)nc(N3CCOCC3)n2)cc1: 155%
CCOc1ccc2nc(Sc3nc(Nc4ccc(I)cc4)nc(N4CCOCC4)n3)sc2c1: 173% and 263% and 302% and 200% and 202% and 236% and 159%
Ic1ccc(Nc2nc(NCCc3c[nH]c4ccccc34)nc(N3CCOCC3)n2)cc1: 5.15% and 59.5% and 37.2% and 8.77% and 42.1% and -1.46% and 59.2% and 65.6%

Block 3
SMILES: CCN1/C(=C/C=C2\CCCC(/C=C/C3=[N+](CC)c4ccccc4C3(C)C)=C2NCCCCCCCCN2CCC(Nc3nc4ccccc4n3Cc3ccc(F)cc3)CC2)C(C)(C)c2ccccc21
Cell line: U-87 MG
Tested at: concentration not given
Baseline: DMSO
Quantity: log2 fold change
refers to: TMEM14A mRNA: -1.64
refers to: STXBP6 mRNA: -1.59
refers to: GGH: -0.927
refers to: TFPI2 mRNA: 1.09
refers to: RRM2 mRNA: -1.93
refers to: HILPDA mRNA: 3.51
refers to: SPTLC3 mRNA: -2.54
refers to: TSPAN10 mRNA: -1.86
refers to: BRAP mRNA: 0.993
refers to: CRISPLD2 mRNA: -2.69
refers to: CDK1 mRNA: -1.88
refers to: FGF14 mRNA: 2.41
refers to: HINFP mRNA: 1.26
refers to: LSR: -1.88
refers to: ITGA1 mRNA: 1.02
refers to: GCSH mRNA: -0.837

Single results of other studies
COCC1CC2C(CCC3(C)C(O)CCC23)c2ccc(O)cc21 (centres unmarked)
log2 expression ratio (A549; DNA microarray, refers to: CCL22; concentration not given; baseline: untreated A549 cells): 0

A few entries again (block 2):
Ic1ccc(Nc2nc(NCCN3CCOCC3)nc(NC3CCCCC3)n2)cc1: 93%
CCOc1ccc2nc(Sc3nc(N4CCOCC4)nc(N4CCOCC4)n3)sc2c1: 111%
Ic1ccc(Nc2nc(N3CCOCC3)nc(N3CCOCC3)n2)cc1: 151%
